# Experimental data pooled from the literature.
# ± marks the error that the study gave.
# Target: Albumin (ALB, Homo sapiens, UniProt P02768)
Structure (SMILES),test,test system,conditions,endpoint,result
C#CC(=O)c1ccc(-c2c([Si](C)(C)C)c3ccccc3c3ccc4ccccc4[n+]23)cc1,LC-MS,,"16 h, pH 7.4, 25 °C, covalent modification of Cys34",conversion,70%
[C-]#[O+].[C-]#[O+].[C-]#[O+].[C-]#[O+].[C-]#[O+].[C-]#[O+].[Cl-].[Cl-].[Re+].[Re+].c1cnc(-c2ncccn2)nc1,tryptophan fluorescence quenching,,,binding constant,18700 M⁻¹
O=S([O-])c1ccccc1N=Cc1ccccc1[O-].[Cu+2].c1c[nH]cn1,fluorescence quenching,,,binding constant,35400 M⁻¹
CCCNCC(=O)O,circular dichroism,,0.12 mM,random coil content,34%
O=C1c2cccc[c]2[Au-]([Cl])([Cl])[N+]1=P(c1ccccc1)(c1ccccc1)c1ccccc1,fluorescence quenching,,"pH 7.4, together with: HSA 10 µM",Stern-Volmer constant,4.58e+06 M^–1
O=C1Nc2cccnc2N(C2CC2)c2ncccc21,ITC,,"concentration not given, 298 K",binding stoichiometry,2.7
N=C(N)c1cccc(C[C@H](NS(=O)(=O)c2cccc(-c3cc(CO)ccc3Cl)c2)C(=O)N2CCC(CCNC(=O)NC3CCCCC3)CC2)c1,"binding at Sudlow site I, fluorescence",,"10 µM, pH 7.4, together with: warfarin 1 µM, HSA 3.5 µM",warfarin displacement,~10%
CCCCCC(C)NCC(=O)O (centres unmarked),"binding, UV-vis absorption titration",,,midpoint concentration,705 µM
Cc1c(C)c(C)[c-](C)c1C.[C-]#[O+].[C-]#[O+].[C-]#[O+].[Cl-].[Cl-].[Cl-].[Ir+3].[Re+].c1cnc(-c2ncccn2)nc1,tryptophan fluorescence quenching,,,binding constant,12400 M⁻¹
CCCCCCCCCCCCCCCCNC(=O)[O][Pt]([Cl])([Cl])[O]C(=O)CCC(=O)O.N.N,Trp214 fluorescence quenching,,,binding constant (Ka),1.04e+06 M⁻¹
O=C(/C=C/c1ccc(O)c(O)c1)NCCCCCCCC[P+](c1ccccc1)(c1ccccc1)c1ccccc1,van't Hoff analysis,,concentration not given,ΔG of binding,-6.22 kcal/mol
Cc1cnc2c(c1)NC(=O)c1cccnc1N2C1CC1,ITC,,concentration not given,binding entropy,38.3 J/(K·mol)
C#CC(=O)c1ccc(-c2c([Si](C)(C)C)c3ccccc3c3cc(-c4ccccc4)c4ccccc4[n+]23)cc1,LC-MS,,"16 h, pH 7.4, 25 °C, covalent modification of Cys34",conversion,70%
O=C([O-])CN1CCN(CC(=O)[O-])CCN(CC(=O)c2ccc(-c3ccc(OCC(=O)O)cc3)cc2)CCN(CC(=O)[O-])CC1.[Gd+3],,HEPES buffer,"25 °C, 60 MHz",r1 relaxivity,5.38 mM⁻¹ s⁻¹
CC1(C)C(=CC=C2C[N+](C)(C)CC(C=CC3=[N+](CCCCCC(=O)O)c4ccccc4C3(C)C)=C2Cl)N(CCCCCC(=O)O)c2ccccc21,HPLC,,"72 h, 37 °C, 2 equiv albumin",covalent adduct formation,~30%
NC1=N[N+](=Cc2c3ccccc3cc3ccccc23)[Ga-3]23([S]1)([S]C(N)=N[N+]2=Cc1c2ccccc2cc2ccccc12)[S]C(N)=N[N+]3=Cc1c2ccccc2cc2ccccc12,fluorescence quenching,,303 K,Stern-Volmer constant,166000 ± 8000 M⁻¹
Cc1ccc(C(C)C)cc1.O=C(N=P12CN3CN(CN(C3)C1)C2)c1[c-]cccc1.[Cl-].[Ru+2],fluorescence quenching,,pH 7.4,Stern-Volmer constant,38500 M⁻¹

# Excerpt of the above:
Structure (SMILES),test,test system,conditions,endpoint,result
C#CC(=O)c1ccc(-c2c([Si](C)(C)C)c3ccccc3c3cc(-c4ccccc4)c4ccccc4[n+]23)cc1,LC-MS,,"16 h, pH 7.4, 25 °C, covalent modification of Cys34",conversion,70%
